Results pooled from the literature.
Every numbered part comes from another study and shows a few of its results, in no order.

Sample 1
Target: Sal-like protein 4, full length isoform A (SALL4, Homo sapiens, UniProt Q9UJQ4, residues 1-1053)
Chain of UniProt Q9UJQ4 (whole entry, looked up): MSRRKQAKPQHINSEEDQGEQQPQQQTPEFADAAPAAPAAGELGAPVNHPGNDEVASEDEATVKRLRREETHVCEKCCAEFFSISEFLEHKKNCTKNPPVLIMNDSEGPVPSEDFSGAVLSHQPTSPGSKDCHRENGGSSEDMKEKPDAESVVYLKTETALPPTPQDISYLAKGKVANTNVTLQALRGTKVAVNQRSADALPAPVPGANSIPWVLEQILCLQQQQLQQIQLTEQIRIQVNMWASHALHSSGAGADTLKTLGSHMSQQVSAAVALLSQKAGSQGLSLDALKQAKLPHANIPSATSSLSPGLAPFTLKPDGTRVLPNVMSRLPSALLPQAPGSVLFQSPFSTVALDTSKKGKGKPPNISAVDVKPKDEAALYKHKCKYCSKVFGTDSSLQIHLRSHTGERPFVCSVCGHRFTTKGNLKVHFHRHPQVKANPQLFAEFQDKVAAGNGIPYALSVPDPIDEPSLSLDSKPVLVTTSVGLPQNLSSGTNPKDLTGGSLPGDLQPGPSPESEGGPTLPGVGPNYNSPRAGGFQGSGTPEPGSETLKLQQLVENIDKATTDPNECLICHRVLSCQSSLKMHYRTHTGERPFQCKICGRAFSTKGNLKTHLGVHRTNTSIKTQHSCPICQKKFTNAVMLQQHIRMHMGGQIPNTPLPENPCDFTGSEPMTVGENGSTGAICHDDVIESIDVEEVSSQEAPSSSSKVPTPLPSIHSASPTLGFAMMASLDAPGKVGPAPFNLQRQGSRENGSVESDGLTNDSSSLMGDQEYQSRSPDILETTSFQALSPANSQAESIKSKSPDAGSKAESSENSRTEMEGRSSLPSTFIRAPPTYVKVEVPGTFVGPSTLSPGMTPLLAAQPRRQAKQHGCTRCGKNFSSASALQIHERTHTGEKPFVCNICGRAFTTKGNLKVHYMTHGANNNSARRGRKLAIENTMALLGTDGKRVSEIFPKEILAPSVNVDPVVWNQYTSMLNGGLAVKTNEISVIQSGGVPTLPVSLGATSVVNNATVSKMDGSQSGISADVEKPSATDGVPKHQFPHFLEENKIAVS
Technique: universal PBM
Form: double-stranded DNA, one strand shown
Medium: in vitro
Tested at: 600 nM
Notes: 8-mer, flanks averaged, mean of replicates
Reading: higher = stronger binding
Strand	E-score
AATTTCGT	0.251
CGTAGTTA	0.239
GCGAACCC	-0.286
ATCTTACA	0.164
AAATGGAG	0.0177
GGAATAAA	0.294

Sample 2
Target: Prothrombin, mature alpha-thrombin (F2, Homo sapiens, UniProt P00734)
Technique: aptamer microarray, sandwich
Form: DNA with 2'F-ANA
Medium: in vitro
Tested at: 200 nM
Notes: whole 15-mer aptamer, many near background
With: Cy3 exosite-II aptamer, 400 nM
Reading: higher = stronger binding
Strand: GGTTGGTGTGGTTGG
Modification	mean fluorescence intensity
2'F-ANA at 3 8 11 13 14	561 a.u.
2'F-ANA at 3 8 10 14	524 a.u.
2'F-ANA at 2 5 6 7 9 14 15	48.3 a.u.
2'F-ANA at 8 9 11 12 14 15	207 a.u.
2'F-ANA at 1 3 4 7 8 10 11 15	59.7 a.u.
2'F-ANA at 3 4 6 7 8 10 15	269 a.u.
2'F-ANA at 3 6 7 8 11 13	912 a.u.
2'F-ANA at 1 2 3 5 9 10 11 13 14 15	49 a.u.

Sample 3
Target: Interferon regulatory factor 3, full length, phosphomimetic (IRF3, Homo sapiens, UniProt Q14653, residues 1-427, S386D/S396D/S398D/S402D/T404D/S405D)
Technique: protein-binding microarray
Form: double-stranded DNA, one strand shown
Medium: in vitro
Tested at: 2540 nM top
Notes: 60-bp whole probe
With: salmon DNA 0.4 mg/ml
Relative to: random background probes
Reading: higher = stronger binding
All sequences stand within: GCCTAGCAC … GTGCTAGGTCTTGATTCGCTTGACGCTGCTG
Construct (chain): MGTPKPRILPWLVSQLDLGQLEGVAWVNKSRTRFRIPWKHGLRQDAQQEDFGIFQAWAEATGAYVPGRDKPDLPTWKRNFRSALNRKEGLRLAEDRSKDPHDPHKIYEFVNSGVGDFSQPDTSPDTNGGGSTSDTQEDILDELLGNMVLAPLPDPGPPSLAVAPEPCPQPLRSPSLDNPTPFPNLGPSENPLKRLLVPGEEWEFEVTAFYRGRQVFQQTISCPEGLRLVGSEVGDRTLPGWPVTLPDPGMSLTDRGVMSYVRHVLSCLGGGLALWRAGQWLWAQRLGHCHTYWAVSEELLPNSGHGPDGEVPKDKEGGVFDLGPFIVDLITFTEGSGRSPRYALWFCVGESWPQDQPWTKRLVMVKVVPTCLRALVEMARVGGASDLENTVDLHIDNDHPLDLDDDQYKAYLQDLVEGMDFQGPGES
Strand	fitted relative affinity [z-score]
TCAGATCTCAGACTGGATTA	0.889
TTATGTGTAGGTCTTAAATA	-0.0964
TAGTTTTACTTTCTATCTCT	6.66
CTTGCTTTCCTACTGAAATA	2.85
GACGAACTGAGTTTCGAGCC	0.352
TCATCCCTAATTCTGATACT	0.764
TTAGAACTGAGTTTTGATTA	0.0658

Mixed results
Substance	target	test	system	conditions	scale	quantity	result
PhoQ, residues 284 288 289 292 302 303 SLSLLA	PhoP, residues 12 14 15 18 19 VHSCL (Escherichia coli, UniProt P23836)	Sort-seq, measured: YFP reporter	E. coli	PhoQ-PhoP variant library, with: 10 µM Mg2+	relative to: high Mg2+ state, higher = stronger signaling	fold induction	5.04

Repeated from above (sample 1):
Strand	E-score
CGTAGTTA	0.239
GCGAACCC	-0.286
ATCTTACA	0.164
AAATGGAG	0.0177
